Published values of several laboratories.
Numbered parts are unrelated; each lists some results of a single study. “And” joins repeats or separate records; there may be more than shown.
UniProt P21802, sequence (whole entry, looked up): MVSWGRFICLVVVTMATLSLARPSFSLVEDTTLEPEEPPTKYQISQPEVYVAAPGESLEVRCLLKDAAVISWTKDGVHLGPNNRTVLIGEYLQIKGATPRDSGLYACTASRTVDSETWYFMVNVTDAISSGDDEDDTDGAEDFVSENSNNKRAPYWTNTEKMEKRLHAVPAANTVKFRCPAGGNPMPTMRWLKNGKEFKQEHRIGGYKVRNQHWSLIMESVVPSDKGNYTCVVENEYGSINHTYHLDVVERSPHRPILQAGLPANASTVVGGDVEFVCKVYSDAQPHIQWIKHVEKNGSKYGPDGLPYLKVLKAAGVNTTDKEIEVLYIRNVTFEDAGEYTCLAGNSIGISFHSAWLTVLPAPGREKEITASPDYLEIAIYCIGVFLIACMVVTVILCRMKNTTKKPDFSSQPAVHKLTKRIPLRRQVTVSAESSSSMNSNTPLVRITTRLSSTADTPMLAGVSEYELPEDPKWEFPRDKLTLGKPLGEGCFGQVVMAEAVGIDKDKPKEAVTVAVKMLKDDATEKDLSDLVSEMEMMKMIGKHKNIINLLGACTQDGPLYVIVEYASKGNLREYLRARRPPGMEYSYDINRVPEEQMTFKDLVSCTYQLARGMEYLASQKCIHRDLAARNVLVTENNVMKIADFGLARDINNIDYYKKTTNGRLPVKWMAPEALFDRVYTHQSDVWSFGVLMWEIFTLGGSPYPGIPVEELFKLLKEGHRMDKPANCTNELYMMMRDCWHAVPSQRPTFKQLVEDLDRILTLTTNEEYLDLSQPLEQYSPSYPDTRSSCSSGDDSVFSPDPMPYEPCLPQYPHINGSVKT
UniProt O75116, sequence (whole entry, looked up): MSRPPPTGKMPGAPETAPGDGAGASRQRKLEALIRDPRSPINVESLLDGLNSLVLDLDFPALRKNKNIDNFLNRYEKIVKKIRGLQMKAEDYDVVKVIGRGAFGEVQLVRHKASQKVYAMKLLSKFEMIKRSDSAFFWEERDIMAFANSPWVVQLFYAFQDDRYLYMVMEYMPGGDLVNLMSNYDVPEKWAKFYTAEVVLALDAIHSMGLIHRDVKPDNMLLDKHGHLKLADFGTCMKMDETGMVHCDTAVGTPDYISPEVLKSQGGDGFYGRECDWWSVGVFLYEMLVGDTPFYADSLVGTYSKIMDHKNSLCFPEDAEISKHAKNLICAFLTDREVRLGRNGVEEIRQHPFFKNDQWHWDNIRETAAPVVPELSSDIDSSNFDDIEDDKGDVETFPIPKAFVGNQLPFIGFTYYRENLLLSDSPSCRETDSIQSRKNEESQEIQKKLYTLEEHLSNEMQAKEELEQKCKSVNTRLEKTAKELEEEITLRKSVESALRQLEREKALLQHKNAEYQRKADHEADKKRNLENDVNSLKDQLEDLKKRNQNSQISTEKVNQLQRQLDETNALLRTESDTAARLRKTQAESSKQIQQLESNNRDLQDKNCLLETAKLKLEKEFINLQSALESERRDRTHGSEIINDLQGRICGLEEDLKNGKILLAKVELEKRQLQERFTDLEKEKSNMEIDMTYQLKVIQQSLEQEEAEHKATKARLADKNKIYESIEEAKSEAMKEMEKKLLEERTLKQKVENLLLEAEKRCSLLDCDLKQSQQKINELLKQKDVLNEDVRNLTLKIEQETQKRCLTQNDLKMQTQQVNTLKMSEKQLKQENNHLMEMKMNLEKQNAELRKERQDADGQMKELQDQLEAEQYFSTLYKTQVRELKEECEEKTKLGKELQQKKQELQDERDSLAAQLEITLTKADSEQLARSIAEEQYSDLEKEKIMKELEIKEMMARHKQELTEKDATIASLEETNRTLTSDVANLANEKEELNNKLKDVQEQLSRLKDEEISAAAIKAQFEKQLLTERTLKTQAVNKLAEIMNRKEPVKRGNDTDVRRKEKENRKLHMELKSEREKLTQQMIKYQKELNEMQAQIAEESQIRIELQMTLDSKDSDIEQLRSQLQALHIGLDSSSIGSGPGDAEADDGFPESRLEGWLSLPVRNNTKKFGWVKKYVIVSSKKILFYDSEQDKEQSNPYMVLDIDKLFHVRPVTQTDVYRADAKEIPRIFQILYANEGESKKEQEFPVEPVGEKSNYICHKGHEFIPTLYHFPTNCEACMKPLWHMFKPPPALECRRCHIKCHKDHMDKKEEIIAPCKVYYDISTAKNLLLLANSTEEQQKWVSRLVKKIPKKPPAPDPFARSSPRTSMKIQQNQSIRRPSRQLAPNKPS
UniProt Q9Y616, sequence (whole entry, looked up): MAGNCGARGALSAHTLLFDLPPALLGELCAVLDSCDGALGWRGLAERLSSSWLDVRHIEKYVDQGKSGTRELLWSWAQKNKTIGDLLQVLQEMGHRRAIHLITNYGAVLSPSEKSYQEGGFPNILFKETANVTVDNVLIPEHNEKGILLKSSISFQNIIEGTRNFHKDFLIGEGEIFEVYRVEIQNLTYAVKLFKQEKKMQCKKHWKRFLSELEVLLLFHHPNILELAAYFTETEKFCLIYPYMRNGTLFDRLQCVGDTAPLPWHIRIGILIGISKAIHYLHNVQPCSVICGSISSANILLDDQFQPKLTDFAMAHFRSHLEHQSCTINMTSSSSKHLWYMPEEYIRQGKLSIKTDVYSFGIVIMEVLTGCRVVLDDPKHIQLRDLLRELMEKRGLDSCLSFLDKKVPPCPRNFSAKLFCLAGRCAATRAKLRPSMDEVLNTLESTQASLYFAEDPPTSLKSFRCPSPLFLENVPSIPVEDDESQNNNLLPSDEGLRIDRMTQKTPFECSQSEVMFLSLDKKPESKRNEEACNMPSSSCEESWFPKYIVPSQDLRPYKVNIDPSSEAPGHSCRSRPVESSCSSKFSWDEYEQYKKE
UniProt Q8NI60, sequence (whole entry, looked up): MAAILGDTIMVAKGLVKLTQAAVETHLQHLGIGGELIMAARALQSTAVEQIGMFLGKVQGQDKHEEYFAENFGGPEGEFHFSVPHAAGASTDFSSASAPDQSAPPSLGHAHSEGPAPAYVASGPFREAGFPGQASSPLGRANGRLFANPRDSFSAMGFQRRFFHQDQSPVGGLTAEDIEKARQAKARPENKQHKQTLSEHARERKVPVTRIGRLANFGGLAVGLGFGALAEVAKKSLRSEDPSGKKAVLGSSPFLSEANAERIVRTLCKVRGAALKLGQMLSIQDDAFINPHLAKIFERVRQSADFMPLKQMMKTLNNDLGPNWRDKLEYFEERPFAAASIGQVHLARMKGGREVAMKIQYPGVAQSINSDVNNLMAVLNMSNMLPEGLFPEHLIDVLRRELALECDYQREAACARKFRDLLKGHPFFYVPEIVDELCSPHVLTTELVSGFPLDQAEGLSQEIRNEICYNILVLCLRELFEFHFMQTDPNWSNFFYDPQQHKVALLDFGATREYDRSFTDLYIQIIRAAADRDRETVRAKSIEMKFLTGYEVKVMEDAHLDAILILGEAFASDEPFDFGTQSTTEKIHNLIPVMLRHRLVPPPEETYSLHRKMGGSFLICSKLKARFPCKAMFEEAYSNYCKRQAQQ

Series 1
SMILES: COc1cc(-c2nc3ccc(C(=O)NCCCN4CCN(c5cccc(C)c5C)CC4)cc3n2C2CCC2)cc(OC)c1OC
target | effect on | technique | concentration | baseline | remaining binding [%]
FLT3 ITD D835V human | – | KINOMEscan | 1000 nM | DMSO control | 89
ROCK2 (Homo sapiens, UniProt O75116) | binding | competition with immobilised ligand | 1 µM | – | 89
Ribosomal protein S6 kinase alpha-5, N-terminal kinase domain (RPS6KA5, Homo sapiens, UniProt O75582) | binding | competition with immobilised ligand | 1 µM | – | 100
MAPK14 (Homo sapiens, UniProt Q16539) | binding | competition with immobilised ligand | 1 µM | – | 92
COQ8A (Homo sapiens, UniProt Q8NI60) | binding | competition with immobilised ligand | 1 µM | – | 95
NIM1K (Homo sapiens, UniProt Q8IY84) | binding | competition with immobilised ligand | 1 µM | – | 92
IRAK3 (Homo sapiens, UniProt Q9Y616) | binding | competition with immobilised ligand | 1 µM | – | 100
FGFR2 (Homo sapiens, UniProt P21802) | binding | competition with immobilised ligand | 1 µM | – | 96

Series 2
Compound: CN1CCC[C@H]1COc1nc2c(c(N3CCN(C(=O)C(F)(F)F)[C@@H](CC#N)C3)n1)CCN(c1cccc3cccc(Cl)c13)C2
Effect on: binding
Mode: competitor
Technique: NanoBRET
Cells: HEK293
KRAS Q61L: GTPase KRas (KRAS, Homo sapiens, UniProt P01116, Q61L)
KRAS G13D: GTPase KRas (KRAS, Homo sapiens, UniProt P01116, G13D)
target | concentration | normalized BRET
KRAS Q61L | 33.3 µM | 23.6% and 22.4% and 27.7%
GTPase KRas (KRAS, Homo sapiens, UniProt P01116, Q61R) | 1.24 µM | 81% and 84.8% and 100%
KRAS G13D | 45.7 nM | 87.1% and 91.1% and 104% and 101%
KRAS Q61L | 1.24 µM | 80.5% and 89.2% and 80%
KRAS G13D | 5.08 nM | 87.7% and 98.8% and 98.5% and 108%
KRAS Q61L | 412 nM | 88.8% and 96% and 92.4%
KRAS G13D | 137 nM | 99.4% and 102% and 88.2% and 89.6%
GTPase KRas (KRAS, Homo sapiens, UniProt P01116, G12D) | 3.7 µM | 97.8% and 95% and 87%

Series 3
SMILES: C[C@@H]1CN(c2ccc(-c3cc(C(=O)NCCOCCOCCOCCOCCNC(=O)Cn4cc(-c5[nH]cc(C(=O)N[C@@H](CC(N)=O)c6ccc(F)c(Cl)c6)c5-c5ccc(Cl)cc5F)cn4)ccc3F)cc2NC(=O)c2c[nH]c(=O)cc2C(F)(F)F)C[C@H](C)N1C
Effect on: thermal unfolding
Technique: differential scanning fluorimetry
Concentration: 5.5 µM
Direction: higher = more unfolded
WDR5: WD repeat-containing protein 5 (WDR5, Homo sapiens, UniProt P61964)
DCAF1: DDB1- and CUL4-associated factor 1 (DCAF1, Homo sapiens, UniProt Q9Y4B6)
UniProt Q9Y4B6, sequence (whole entry, looked up): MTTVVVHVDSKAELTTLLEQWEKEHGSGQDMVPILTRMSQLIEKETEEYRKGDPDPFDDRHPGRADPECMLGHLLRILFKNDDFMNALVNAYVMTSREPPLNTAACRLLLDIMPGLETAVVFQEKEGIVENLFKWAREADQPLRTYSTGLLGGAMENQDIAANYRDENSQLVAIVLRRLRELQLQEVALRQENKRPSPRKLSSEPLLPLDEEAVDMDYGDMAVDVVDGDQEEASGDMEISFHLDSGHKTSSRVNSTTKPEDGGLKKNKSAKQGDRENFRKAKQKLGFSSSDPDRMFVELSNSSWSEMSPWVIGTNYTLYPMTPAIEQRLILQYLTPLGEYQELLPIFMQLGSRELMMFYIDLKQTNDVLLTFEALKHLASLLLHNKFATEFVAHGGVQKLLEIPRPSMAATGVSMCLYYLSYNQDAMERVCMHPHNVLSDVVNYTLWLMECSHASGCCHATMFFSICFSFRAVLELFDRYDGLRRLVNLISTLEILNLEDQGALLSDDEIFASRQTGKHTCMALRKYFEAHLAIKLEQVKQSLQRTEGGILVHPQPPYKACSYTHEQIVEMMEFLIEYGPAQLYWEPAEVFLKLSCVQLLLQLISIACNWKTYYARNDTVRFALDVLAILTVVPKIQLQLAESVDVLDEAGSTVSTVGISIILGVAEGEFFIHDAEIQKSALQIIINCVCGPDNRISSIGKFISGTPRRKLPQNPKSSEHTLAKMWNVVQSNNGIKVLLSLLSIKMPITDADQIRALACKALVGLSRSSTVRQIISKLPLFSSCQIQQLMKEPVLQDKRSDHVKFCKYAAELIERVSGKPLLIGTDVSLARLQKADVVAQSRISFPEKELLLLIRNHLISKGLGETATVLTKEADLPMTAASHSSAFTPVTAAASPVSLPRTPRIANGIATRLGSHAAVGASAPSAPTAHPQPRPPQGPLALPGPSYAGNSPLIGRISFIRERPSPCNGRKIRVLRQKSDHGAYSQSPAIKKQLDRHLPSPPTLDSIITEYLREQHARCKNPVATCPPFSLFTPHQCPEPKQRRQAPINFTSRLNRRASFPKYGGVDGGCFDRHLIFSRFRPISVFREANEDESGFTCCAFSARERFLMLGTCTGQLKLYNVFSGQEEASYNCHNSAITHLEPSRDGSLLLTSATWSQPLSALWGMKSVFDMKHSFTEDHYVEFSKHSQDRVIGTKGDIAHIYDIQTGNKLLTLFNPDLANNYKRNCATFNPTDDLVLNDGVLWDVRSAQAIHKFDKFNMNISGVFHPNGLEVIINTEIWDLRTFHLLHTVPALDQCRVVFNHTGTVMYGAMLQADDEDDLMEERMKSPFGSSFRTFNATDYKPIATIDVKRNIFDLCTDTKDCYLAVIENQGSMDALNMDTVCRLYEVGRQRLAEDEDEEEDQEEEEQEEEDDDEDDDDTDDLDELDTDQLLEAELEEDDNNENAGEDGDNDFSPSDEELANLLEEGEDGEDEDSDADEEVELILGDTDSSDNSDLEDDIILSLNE
target | temperature | SYPRO Orange fluorescence [a.u.]
WDR5 | 71.81 °C | 7460
WDR5 | 78.41 °C | 18500
DCAF1 | 60.81 °C | 42000
DCAF1 | 32.8 °C | 8300
DCAF1 | 30.6 °C | 8330
DCAF1 | 87.41 °C | 37500
WDR5 | 52.01 °C | 14400
DCAF1 | 88.41 °C | 36600

Further values, each from its own experiment
Structure (SMILES) | cell line | concentration | time | added | measurement | value
Cn1cc(-c2cccc(CN3CCC4(CC3)COc3c4ccc4c3CN([C@H]3CCC(=O)NC3=O)C4=O)c2)cn1 | Jurkat | 1 nM | 24 h | CD3/CD28 beads, 1:4 | IL-2 level | 110 pg/mL and 119 pg/mL and 87.6 pg/mL

A few entries again (series 2):
target | concentration | normalized BRET
KRAS G13D | 45.7 nM | 87.1% and 91.1% and 104% and 101%
KRAS Q61L | 1.24 µM | 80.5% and 89.2% and 80%
KRAS G13D | 5.08 nM | 87.7% and 98.8% and 98.5% and 108%
